{"data": "Assay results gathered from unrelated publications", "organism": "Acinetobacter baumannii", "note": "Lines come from different studies, so protocols differ."}
{"SMILES": "CC(C)C[C@H](NC(=O)[C@H](CCCCN)NC(=O)[C@H](CCCNC(=N)N)NC(=O)[C@@H](NC(=O)[C@H](CCCCN)NC(=O)[C@H](CCCCN)NC(=O)[C@@H](NC(=O)[C@H](Cc1ccccc1)NC(=O)[C@H](CCCNC(=N)N)NC(=O)[C@@H](N)CCCNC(=N)N)C(C)C)C(C)C)C(=O)N[C@H](C(=O)N[C@@H](CCCCN)C(=O)O)C(C)C", "test": "bacterial killing, colony count", "system": "ATCC 17978", "setting": "1 h, pH 7, 37 °C", "quantity": "EC50", "value": "5.9 mg/L"}
{"SMILES": "Cn1c(=O)cnc2ccc(F)c(CCNC[C@H]3CN(c4cnc5c(n4)NC(=O)CO5)C(=O)O3)c21", "system": "ATCC 19606", "quantity": "MIC", "value": "0.25 mg/L"}
{"SMILES": "CC[C@H](C)[C@H](NC(=O)[C@H](Cc1c[nH]cn1)NC(=O)[C@H](Cc1c[nH]cn1)NC(=O)[C@H](Cc1ccccc1)NC(=O)[C@@H](N)Cc1ccccc1)C(=O)N[C@@H](Cc1ccccc1)C(=O)N[C@@H](CCCNC(=N)N)C(=O)NCC(=O)N[C@@H](CCCCN)C(=O)N[C@H](C(=O)N[C@@H](Cc1c[nH]cn1)C(=O)N[C@H](C(=O)NCC(=O)N[C@@H](CCCCN)C(=O)N[C@H](C(=O)N[C@H](C(=O)N[C@@H](Cc1c[nH]cn1)C(=O)N[C@@H](CCCNC(=N)N)C(=O)N[C@@H](CC(C)C)C(=O)N[C@H](C(=O)N[C@H](C(=O)NCC(N)=O)[C@@H](C)O)C(C)C)[C@@H](C)CC)[C@@H](C)O)C(C)C)C(C)C", "system": "colistin-resistant clinical", "setting": "18 h, 37 °C", "quantity": "MIC", "value": "3.1 mg/L"}
{"SMILES": "CC(C)C[C@H](NC(=O)[C@H](CCCNC(=N)N)NC(=O)[C@H](CCCCN)NC(=O)[C@@H](N)Cc1c[nH]c2ccccc12)C(=O)N[C@@H](CCCNC(=N)N)C(=O)N[C@@H](Cc1c[nH]c2ccccc12)C(=O)N[C@@H](CCCNC(=N)N)C(=O)N[C@@H](CCCNC(=N)N)C(=O)N[C@@H](Cc1ccccc1)C(=O)N[C@@H](Cc1ccccc1)C(=O)O", "test": "bacterial killing, colony count", "system": "ATCC 17978", "setting": "1 h, pH 7, 37 °C", "quantity": "EC50", "value": "19 mg/L"}
{"SMILES": "CC[C@H](C)[C@H](NC(=O)[C@H](Cc1ccccc1)NC(=O)[C@H](CC(=O)O)NC(=O)[C@H](CCCCN)NC(=O)[C@H](C)NC(=O)[C@H](CCCCN)NC(=O)[C@H](CC(N)=O)NC(=O)[C@H](CC(C)C)NC(=O)[C@H](Cc1c[nH]c2ccccc12)NC(=O)[C@H](CCC(=O)O)NC(=O)[C@H](CCCCN)NC(=O)[C@@H](NC(=O)CNC(=O)[C@H](C)N)[C@@H](C)O)C(=O)N[C@@H](CCCCN)C(=O)N[C@@H](CCC(=O)O)C(=O)N[C@@H](CCCCN)C(=O)NCC(=O)N[C@@H](CC(C)C)C(=O)NCC(=O)N[C@@H](CCSC)C(=O)N[C@@H](CC(C)C)C(=O)N[C@@H](CO)C(=O)N[C@@H](C)C(=O)N[C@@H](C)C(=O)N[C@@H](C)C(=O)N[C@@H](CC(N)=O)C(=O)N[C@@H](C)C(=O)N[C@@H](C)C(=O)N[C@@H](CC(C)C)C(=O)N[C@@H](CC(N)=O)C(=O)O", "test": "broth microdilution", "system": "ATCC 19606", "setting": "20 h, 37 °C", "quantity": "MIC", "value": "> 40 µM"}
{"SMILES": "CC(C)C[C@H](NC(=O)[C@H](CCCCN)NC(=O)[C@H](CCCCN)NC(=O)[C@H](CC(C)C)NC(=O)[C@H](CCCCN)NC(=O)[C@@H](N)CCCNC(=N)N)C(=O)N[C@@H](Cc1c[nH]c2ccccc12)C(=O)N[C@@H](CCCNC(=N)N)C(=O)N[C@@H](CCCCN)C(=O)N[C@@H](Cc1ccccc1)C(=O)N[C@@H](CCCNC(=N)N)C(=O)O", "test": "bacterial killing, colony count", "system": "ATCC 17978", "setting": "1 h, pH 7, 37 °C", "quantity": "EC50", "value": "3.1 mg/L"}
{"SMILES": "CC[C@H](C)[C@H](NC(=O)[C@H](CCCCN)NC(=O)[C@H](CC(C)C)NC(=O)[C@H](CC(C)C)NC(=O)[C@H](C)NC(=O)CNC(=O)[C@H](CC(C)C)NC(=O)[C@@H](N)Cc1ccccc1)C(=O)NCC(=O)N[C@@H](C)C(=O)N[C@@H](CCCCN)C(=O)N[C@@H](CC(C)C)C(=O)N[C@@H](CC(C)C)C(=O)N1CCC[C@H]1C(=O)N[C@@H](CO)C(=O)N[C@H](C(=O)N[C@H](C(=O)NCC(=O)N[C@@H](CC(C)C)C(=O)N[C@@H](Cc1ccccc1)C(=O)N[C@@H](CCCCN)C(=O)N[C@@H](CCCCN)C(=O)N[C@@H](CCCCN)C(=O)N[C@@H](CCC(N)=O)C(=O)N[C@@H](CCC(N)=O)C(=O)O)C(C)C)C(C)C", "test": "broth microdilution", "system": "ATCC 19606", "setting": "20 h, 37 °C", "quantity": "MIC", "value": "1.4 to 2.9 µM"}
{"SMILES": "CC[C@H](C)[C@H](NC(=O)CNC(=O)[C@H](CCCNC(=N)N)NC(=O)[C@H](Cc1ccccc1)NC(=O)[C@@H](NC(=O)[C@H](Cc1c[nH]cn1)NC(=O)[C@H](Cc1c[nH]cn1)NC(=O)[C@H](Cc1ccccc1)NC(=O)[C@@H](N)Cc1ccccc1)[C@@H](C)CC)C(=O)N[C@H](C(=O)N[C@@H](Cc1c[nH]cn1)C(=O)N[C@H](C(=O)NCC(=O)N[C@@H](CCCCN)C(=O)N[C@H](C(=O)N[C@@H](C)C(=O)N[C@@H](Cc1c[nH]cn1)C(=O)N[C@@H](CCCNC(=N)N)C(=O)N[C@@H](CC(C)C)C(=O)N[C@H](C(=O)N[C@H](C(=O)NCC(N)=O)[C@@H](C)O)C(C)C)[C@@H](C)O)C(C)C)C(C)C", "system": "colistin-resistant clinical", "setting": "18 h, 37 °C", "quantity": "MIC", "value": "3.1 mg/L"}
{"SMILES": "CC[C@H](C)[C@H](NC(=O)[C@H](C)NC(=O)[C@H](C)NC(=O)[C@H](CC(N)=O)NC(=O)[C@H](C)NC(=O)[C@H](C)NC(=O)[C@H](C)NC(=O)[C@H](CCCNC(=N)N)NC(=O)[C@H](CC(C)C)NC(=O)[C@@H](NC(=O)[C@H](CCC(=O)O)NC(=O)[C@@H]1CCCN1C(=O)CNC(=O)[C@H](CCCCN)NC(=O)[C@H](CCC(=O)O)NC(=O)[C@H](CCCCN)NC(=O)[C@@H](NC(=O)[C@H](Cc1ccccc1)NC(=O)[C@H](CC(=O)O)NC(=O)[C@H](CCCCN)NC(=O)[C@H](C)NC(=O)[C@H](CCCCN)NC(=O)[C@H](CC(N)=O)NC(=O)[C@H](CC(C)C)NC(=O)[C@H](Cc1c[nH]c2ccccc12)NC(=O)[C@H](CC(=O)O)NC(=O)[C@H](CCCCN)NC(=O)[C@H](Cc1c[nH]c2ccccc12)NC(=O)CN)[C@@H](C)CC)[C@@H](C)CC)C(=O)N[C@@H](CC(N)=O)C(=O)O", "test": "broth microdilution", "system": "ATCC 19606", "setting": "20 h, 37 °C", "quantity": "MIC", "value": "1.48 µM"}
{"SMILES": "C[C@@H](O)[C@H]1C(=O)N2C(C(=O)O)=C(SCCN=CN)C[C@H]12", "test": "broth microdilution", "system": "ATCC 17978 pET-RA-KmR OXA-24/40", "setting": "without inhibitor", "quantity": "MIC", "value": "64 mg/L"}
{"note": "A few entries again:"}
{"SMILES": "CC[C@H](C)[C@H](NC(=O)[C@H](Cc1ccccc1)NC(=O)[C@H](CC(=O)O)NC(=O)[C@H](CCCCN)NC(=O)[C@H](C)NC(=O)[C@H](CCCCN)NC(=O)[C@H](CC(N)=O)NC(=O)[C@H](CC(C)C)NC(=O)[C@H](Cc1c[nH]c2ccccc12)NC(=O)[C@H](CCC(=O)O)NC(=O)[C@H](CCCCN)NC(=O)[C@@H](NC(=O)CNC(=O)[C@H](C)N)[C@@H](C)O)C(=O)N[C@@H](CCCCN)C(=O)N[C@@H](CCC(=O)O)C(=O)N[C@@H](CCCCN)C(=O)NCC(=O)N[C@@H](CC(C)C)C(=O)NCC(=O)N[C@@H](CCSC)C(=O)N[C@@H](CC(C)C)C(=O)N[C@@H](CO)C(=O)N[C@@H](C)C(=O)N[C@@H](C)C(=O)N[C@@H](C)C(=O)N[C@@H](CC(N)=O)C(=O)N[C@@H](C)C(=O)N[C@@H](C)C(=O)N[C@@H](CC(C)C)C(=O)N[C@@H](CC(N)=O)C(=O)O", "test": "broth microdilution", "system": "ATCC 19606", "setting": "20 h, 37 °C", "quantity": "MIC", "value": "> 40 µM"}
